Measurements from different studies.
Parts stem from different laboratories: compare values within a part only. Substitutions count along the parent as printed.

Block 1
Target: CCNB3, cyclin fold, Cln2 fusion (human)
Method: yeast growth competition, sequencing
Matrix: yeast
Setting: weak parent motif
Reference: not given
Direction: higher = stronger binding
Endpoint: normalised enrichment score
Starting sequence: ASZ1 docking peptide (human); GFGFLLFICKLTF; partner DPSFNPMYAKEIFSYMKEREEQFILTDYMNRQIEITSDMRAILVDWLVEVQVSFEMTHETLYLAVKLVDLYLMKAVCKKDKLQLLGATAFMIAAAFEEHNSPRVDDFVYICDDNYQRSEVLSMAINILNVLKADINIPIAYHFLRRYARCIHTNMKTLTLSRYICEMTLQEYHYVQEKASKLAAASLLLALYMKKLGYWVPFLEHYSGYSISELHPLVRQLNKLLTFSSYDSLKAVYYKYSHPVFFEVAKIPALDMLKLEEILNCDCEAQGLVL
Substitution = GFAFLLFICKLTF [G3A]; value = 0.269
Substitution = GAGFLLFICKLTF [F2A]; value = 0.0414
Substitution = GFGFALFICKLTF [L5A]; value = 0.0895
Substitution = GFGFLLAICKLTF [F7A]; value = 0.385
Substitution = GFGFLLFACKLTF [I8A]; value = 0.248
Substitution = GFGFLLFICKATF [L11A]; value = 0.224

Block 2
Target: Hepatocyte nuclear factor 3-beta, forkhead domain (FOXA2, Homo sapiens, UniProt Q9Y261, residues 142-269)
Method: protein-binding microarray
Form: double-stranded DNA, one strand shown
Matrix: in vitro
Concentration: not given
Setting: k-mer, scored over probes, only values ≥0.25
Direction: higher = stronger binding
Endpoint: E-score
Construct (chain): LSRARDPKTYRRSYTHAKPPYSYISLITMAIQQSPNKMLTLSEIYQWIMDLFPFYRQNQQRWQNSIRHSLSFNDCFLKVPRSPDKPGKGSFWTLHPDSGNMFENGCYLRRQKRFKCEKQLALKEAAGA
Sequence = ATTATAAT; value = 0.274
Sequence = ATACAGTC; value = 0.285
Sequence = AACATATC; value = 0.286
Sequence = AGTTGTTG; value = 0.278
Sequence = AATCGTAG; value = 0.255
Sequence = AATACAAG; value = 0.314
Sequence = ATTTAATC; value = 0.294
Sequence = CATTAATA; value = 0.282
Sequence = CAGATGAA; value = 0.283
Sequence = ACTTTATG; value = 0.281
Sequence = TACAGATA; value = 0.318
Sequence = AACAATAA; value = 0.356
Sequence = CGATATAA; value = 0.261
Sequence = TCATGCAA; value = 0.255

Block 3
Target: Sal-like protein 4, full length isoform A (SALL4, Homo sapiens, UniProt Q9UJQ4, residues 1-1053)
UniProt Q9UJQ4, sequence (whole entry, looked up): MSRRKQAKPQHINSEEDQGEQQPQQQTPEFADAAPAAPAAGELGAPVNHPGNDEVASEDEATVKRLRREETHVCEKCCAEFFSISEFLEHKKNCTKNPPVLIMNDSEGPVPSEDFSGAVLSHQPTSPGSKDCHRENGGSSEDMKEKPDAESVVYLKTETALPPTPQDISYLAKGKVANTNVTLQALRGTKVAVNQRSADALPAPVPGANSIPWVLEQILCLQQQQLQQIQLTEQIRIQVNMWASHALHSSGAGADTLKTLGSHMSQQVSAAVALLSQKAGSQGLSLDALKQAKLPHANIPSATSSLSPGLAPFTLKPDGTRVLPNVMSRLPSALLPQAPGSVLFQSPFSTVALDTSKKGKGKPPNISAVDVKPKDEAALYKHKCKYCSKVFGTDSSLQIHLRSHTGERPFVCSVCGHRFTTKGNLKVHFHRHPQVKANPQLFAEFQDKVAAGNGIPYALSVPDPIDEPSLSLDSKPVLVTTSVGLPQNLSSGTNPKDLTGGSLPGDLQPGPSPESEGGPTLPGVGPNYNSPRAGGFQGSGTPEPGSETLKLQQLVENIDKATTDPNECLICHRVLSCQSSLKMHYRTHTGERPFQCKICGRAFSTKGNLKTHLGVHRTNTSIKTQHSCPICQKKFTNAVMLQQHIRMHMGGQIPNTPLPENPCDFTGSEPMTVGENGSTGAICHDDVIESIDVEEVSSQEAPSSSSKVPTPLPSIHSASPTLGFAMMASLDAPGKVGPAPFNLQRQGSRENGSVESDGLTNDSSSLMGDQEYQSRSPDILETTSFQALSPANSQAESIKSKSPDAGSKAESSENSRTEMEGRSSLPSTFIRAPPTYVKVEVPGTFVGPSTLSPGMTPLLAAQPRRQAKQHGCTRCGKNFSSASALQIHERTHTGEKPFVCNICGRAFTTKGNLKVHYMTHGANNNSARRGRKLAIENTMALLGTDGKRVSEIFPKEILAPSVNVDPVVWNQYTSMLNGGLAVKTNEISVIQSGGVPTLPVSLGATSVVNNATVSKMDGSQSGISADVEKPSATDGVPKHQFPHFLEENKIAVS
Method: universal PBM
Form: double-stranded DNA, one strand shown
Matrix: in vitro
Concentration: 600 nM
Setting: 8-mer, flanks averaged, mean of replicates
Direction: higher = stronger binding
Endpoint: E-score
Sequence = AAGCTGGT; value = -0.0583
Sequence = CGAATTGC; value = -0.0594
Sequence = ATAAGTCA; value = 0.261
Sequence = GCTCAGAC; value = -0.133
Sequence = CATGTTTA; value = 0.239
Sequence = ATGTCTAG; value = 0.252
Sequence = CAGAAGGA; value = -0.0276
Sequence = AGCAATGC; value = 0.0304
Sequence = GGACTCGA; value = -0.142
Sequence = GAGTTCGC; value = -0.303
Sequence = CGTCCGAG; value = -0.238
Sequence = AAGCGGAT; value = -0.103
Sequence = CGTGCTAA; value = 0.0792
Sequence = GAAGGGAA; value = -0.136
Sequence = CGACTTAA; value = 0.167

Mixed results
Molecule = PhoQ, residues 284 288 289 292 302 303 HSYLQF; target = PhoP, residues 12 14 15 18 19 LHSVW (Escherichia coli, UniProt P23836); assay = Sort-seq, refers to: YFP reporter; test system = E. coli; conditions = PhoQ-PhoP variant library, added: 10 µM Mg2+; how to read = reference: high Mg2+ state, higher = stronger signaling; endpoint = fold induction; value = 1.15
